Measured values pooled from the literature.
Parts stem from different laboratories: compare values within a part only.

Sample 1 — technique: protein binding microarray; molecule type: double-stranded DNA, one strand shown; matrix: in vitro; tested at: not given; relative to: not given; direction: higher = stronger binding
Target: Histone acetyltransferase KAT6A, winged helix 2, GST fusion (KAT6A, Homo sapiens, UniProt Q92794, residues 85-181)
Setting: 8-mer, flanks averaged, mean of 2 arrays, mostly near background
Residues (chain): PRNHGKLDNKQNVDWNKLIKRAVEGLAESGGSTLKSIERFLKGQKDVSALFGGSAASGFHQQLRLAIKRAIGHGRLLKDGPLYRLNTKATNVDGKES
| Oligonucleotide | E-score |
| --- | --- |
| ACAGAAGT | -0.0388 |
| ACGCTGCA | -0.143 |
| CCCGCGCG | 0.295 |
| ATAACCAC | -0.249 |
| CACGGACC | 0.0761 |
| CTTATACA | -0.0542 |
| GATAGGGA | -0.0364 |
| GCTCATCA | 0.0426 |
| GATAACAA | 0.144 |
| CCCCGACA | 0.14 |
| ATTAATAC | -0.0413 |
| TAACGCGA | -0.0263 |
| AAGAAGAG | 0.0998 |
| AGGACTAG | -0.0684 |
| CGACCGTA | -0.212 |
| CCTGGGGA | -0.167 |
| CATGCATC | 0.155 |
| CATCCCTC | 0.057 |
| TATCGATA | -0.0166 |

Sample 2 — technique: RNA Bind-n-Seq; molecule type: RNA; matrix: in vitro; tested at: 365 nM; relative to: no-protein control; direction: higher = stronger binding
Target: RNA binding protein fox-1 homolog 2, RRM domain, GST-SBP tag (RBFOX2, Homo sapiens, UniProt O43251-10, residues 100-194)
Setting: natural RNA segment, single round, ends assumed
Shared flanks, not repeated: GGGAGUUCUACAGUCCGACGAUC … UGGAAUUCUCGGGUGCCAA
Residues (chain): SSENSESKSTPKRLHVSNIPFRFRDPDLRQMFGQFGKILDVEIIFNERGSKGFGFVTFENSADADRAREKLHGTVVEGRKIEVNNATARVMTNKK
| Oligonucleotide | RBNS enrichment (R) |
| --- | --- |
| GACAACAAAGUCCCUGUCCUCAUGGGGCUUAUAUUCUGAUCCAUUUCCUCAUCUAUGAAAUGAAGAUUGUAGUUUUUAUUUCAUAGAGUCAUGAAGAUUGAGUUAAUCUC | 0.226 |
| UCCUCCAGCACUUUCUUUCCGCCUGAGUCCAGCCCAAGGCCUUUUAUUUUGCGCUGUGUAACUGCUGCCAGCUUCUCUCUUGGCCCUGCUCCCAGAUGGCGGUCUCCUGG | 1 |
| CAAUGAUGUCAACACCCCAAGAAGAUCUACCCAACUAUAUCAAGUUCAGAGAUGGCAAUGGAUGAUGGGAAGAUAAGCUCAGAAGGGAAAGGAACCCCUUUGAGAGGUCG | 0.369 |
| UUAGAGAUACCAGAAUGCUGGUAUUCUACUACUUGUGCAAUAUAUAUGUUUUAAAAAACAAAUUUGAGAAUACAUUUAAUCAUAGGGAUAUAGAUAUAAGCACCUCUCUA | 0.435 |
| CACACCUCAUCUCACCCAAGAGUAUUUCCCAAGUCUGCAGCUUCCGUCAGCGAUUGUUGUGUUACCUUCUGGUGUUCCCUCACUGAUUGUGGACAAACCUGGCAGUUGAG | 0.282 |
| AGUGCUGGGUUUAAAGGUAUGCACCACCACCACCACCUGGUUUUAUGUUAUUUUCUAAAAUUGUCAUUCCUUUGCAACAUAUGAGCAUUAAUAUCUUUUCUCUUUUAACA | 0.827 |
| GUUGGUGGGAGGGUUGGCACCUGCACACUCCAUCUCCUGCUCACCACCUGCCUCUAAUCUGAGCUGCAGCCUGGCUGGUCCUCCCAUUUCUAAAGCUGAAUGUCAAACAG | 2.17 |
| UUUGUAAUUUUGCAAAACAUAUCUUGAGUUGUUUAAACAGUCAAAAUGUUUGAUAUUUUAUACCAGCUUAUGAGCUCAAAGUACUACAGCAAAGCCUAGCCUGCAUAUCA | 0.713 |
| AGCAGAGUAGUAUUUUUAUAUUUAAAUGUUAAAAACAAAAAAGUUAUAUAUAUAUGGAUGUGUGGAUGUAUGUCUUUCUAAUUGAGAGAACCAUCCUAUUCACUGGGUGC | 0.509 |
| GAUGCUUGGGAUCUCAAGACUGUCUGCCUUCCUGCCUGCUCCUCAGGCCUGAGAGAGGAGCUGCUCAGUUUACAGAACAGGAGCGGGUUACCAGACUCAUUCUUUUCAUC | 1.98 |
| UAUUACUUGGAAAUUCUGAGUAUUGCUAAAAAGGAGGAUGAAAGGGACCUAGAAGUUGAGUUAUUACUAAAAACUUUGAGUGCGAAGAUAUUACUCAUUAACCAGAUAAC | 0.396 |
| AAACGCAACUCAAAUCUGUGCUGGACUUUAAAAAAACAAUUCAGGACCAAAUUUUUUCUCAGUGUGUGUGUUUAUUCCUUAUAGGUGUAAAUGAGAAGACGUGUUUUUUU | 4.09 |

Sample 3 — technique: universal PBM; molecule type: double-stranded DNA, one strand shown; matrix: in vitro; tested at: not given; direction: higher = stronger binding
Target: Sal-like protein 4, full length isoform B (SALL4, Homo sapiens, UniProt Q9UJQ4-2, residues 1-616)
Setting: 8-mer, flanks averaged, mean of replicates
Target sequence (chain): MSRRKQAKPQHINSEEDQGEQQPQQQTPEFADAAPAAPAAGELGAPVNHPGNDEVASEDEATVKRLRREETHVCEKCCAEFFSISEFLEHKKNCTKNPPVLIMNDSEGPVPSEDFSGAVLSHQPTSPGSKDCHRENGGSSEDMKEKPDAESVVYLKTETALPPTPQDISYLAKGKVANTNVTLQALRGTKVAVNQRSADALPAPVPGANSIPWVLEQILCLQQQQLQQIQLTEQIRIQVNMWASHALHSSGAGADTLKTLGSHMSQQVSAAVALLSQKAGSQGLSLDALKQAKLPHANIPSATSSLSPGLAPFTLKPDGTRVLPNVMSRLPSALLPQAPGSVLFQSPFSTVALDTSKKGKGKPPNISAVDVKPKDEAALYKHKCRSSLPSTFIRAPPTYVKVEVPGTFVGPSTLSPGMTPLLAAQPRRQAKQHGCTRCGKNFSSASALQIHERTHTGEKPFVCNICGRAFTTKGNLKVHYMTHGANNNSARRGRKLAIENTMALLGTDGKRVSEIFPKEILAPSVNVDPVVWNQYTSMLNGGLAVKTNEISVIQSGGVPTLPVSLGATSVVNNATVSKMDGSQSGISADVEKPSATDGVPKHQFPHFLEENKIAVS
| Oligonucleotide | E-score |
| --- | --- |
| ACACATCC | -0.0444 |
| TATACTAA | 0.286 |
| GATAATTA | 0.406 |
| CAAGTAAG | 0.12 |
| CCCAACTC | -0.052 |
| CCCAGAAG | -0.12 |
| CACTGTAA | 0.142 |
| AGATAGCT | -0.0934 |
| ACTTAAAT | 0.336 |
| AGCAGTGC | -0.134 |
| GGCGACAC | -0.252 |
| AGCCAGTA | -0.204 |
| ATGCCGAC | -0.154 |
| AACATCCA | -0.00305 |
| ACCCAATG | -0.0393 |
| CGTTATTA | 0.382 |
| CAATAAAG | 0.249 |
| CAGGCGCG | -0.28 |
| CCGTTGTC | -0.0719 |

Sample 4 — technique: RNAcompete; molecule type: RNA; matrix: in vitro; tested at: 20 nM; setting: 7-mer, probes averaged, single round; relative to: mean of 7-mers; direction: higher = stronger binding
Target: PABPC1L2, full length, GST fusion (mouse, UniProt A0ABA7IW68)
Residues (chain): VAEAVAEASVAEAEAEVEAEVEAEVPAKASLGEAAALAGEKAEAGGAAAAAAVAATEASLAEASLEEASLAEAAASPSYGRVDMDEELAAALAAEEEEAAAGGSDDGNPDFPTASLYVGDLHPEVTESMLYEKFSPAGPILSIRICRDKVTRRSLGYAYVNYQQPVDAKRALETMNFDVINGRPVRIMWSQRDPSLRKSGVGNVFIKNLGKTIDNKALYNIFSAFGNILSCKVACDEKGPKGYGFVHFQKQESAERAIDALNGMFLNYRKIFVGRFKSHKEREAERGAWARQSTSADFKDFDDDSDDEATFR
| Oligonucleotide | 7-mer Z-score |
| --- | --- |
| CGGAAAA | 5.06 |
| GUCAGGU | -0.0808 |
| ACAAUAC | 0.189 |
| UGAGUGG | -0.0881 |
| GUGUGGA | 0.222 |
| AGGGUGA | 0.135 |
| CUGGCAU | -0.155 |
| UCACAUU | -0.171 |
| UAGGCCG | -0.0264 |
| CGCCAAG | -0.38 |
| AUCACAC | -0.18 |
| GAUGAGU | -0.262 |
| CAGAAUU | -0.17 |
| GUUAAUC | -0.278 |
| AGGUAUC | -0.177 |
| UUGCUAC | -0.329 |
| UUCUAUU | -0.411 |
| CUGAUGU | -0.248 |
| AUAGUCG | -0.108 |
| AUCUCUG | -0.166 |
| GGUCACA | 0.169 |
| GAAGAAG | 0.236 |
| CCCCCUA | -0.405 |
| UGGCUUA | 0.0406 |
| AGCAGAC | 0.171 |

Sample 5 — technique: protein-binding microarray; molecule type: double-stranded DNA, one strand shown; matrix: in vitro; tested at: 0.8 µM; setting: whole 60-bp probe, no competitor; direction: higher = stronger binding; shared flanks, not repeated: … GTCTTGATTCGCTTGACGCTGCTG
Target: Centromere-binding protein 1, full length, N-terminal tag (CBF1, Saccharomyces cerevisiae, UniProt P17106, residues 1-351)
Sequence of UniProt P17106 (whole entry, looked up): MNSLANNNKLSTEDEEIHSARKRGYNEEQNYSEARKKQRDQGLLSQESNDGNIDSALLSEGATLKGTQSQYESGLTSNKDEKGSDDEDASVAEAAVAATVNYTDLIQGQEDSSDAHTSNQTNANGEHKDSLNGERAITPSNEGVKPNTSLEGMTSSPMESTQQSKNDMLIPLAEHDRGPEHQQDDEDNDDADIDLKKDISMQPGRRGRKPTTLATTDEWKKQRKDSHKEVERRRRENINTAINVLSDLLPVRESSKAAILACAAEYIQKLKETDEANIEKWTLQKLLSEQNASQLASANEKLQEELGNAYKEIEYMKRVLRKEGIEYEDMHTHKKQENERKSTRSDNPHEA
| Oligonucleotide | fluorescence intensity [a.u.] |
| --- | --- |
| GAATAATTTGCTGATCACATTTGAATCAAAAAATAG | 729 |
| CTATATCATTTAAATCACATGGACACCCACCGATTC | 2230 |
| GAAAAAACAGAAAACCACCAGAGAGAAGCACCGTAG | 480 |
| CTATATTCAGACCCTTACATCAGCAGCAGCACGTTC | 573 |
| GAAACCACCGTGGGTCACCTTTTTCTTGCGCCTTAG | 487 |
| GAAGAAAATCTAAATGTCGTGATGTATAACTTGTAG | 702 |
| GAATGTTCCCGGCAGCACGAGTAAGCAAAATTCTAG | 616 |
| CTAAAAAGAATACGTCACCAAAGTATCAGAAACTTC | 520 |
| CTATTTCATGCCATTGGTGACACGAAAAAAAAATTC | 576 |
| GAAAATAATAGTATACAGGTGATTCTTATTTATTAG | 833 |
| TGTACGAAGCTATAAGACGTGCCTATAGTAGTTAGG | 519 |
| GAAAGAATATAGTGACACCAAACCATAGAACGCTAG | 518 |
| CTATTACAAAATTTCCACGCAACAGCTTTTATTTTC | 507 |
| CTAAAAAAAAAGTGCGACATCACAATGAGACATTTC | 506 |
| GAAGAAAGATATTTGAGCGTGCCTTCGTGAGAATAG | 528 |
| GAAGGACAACTGTTGACCGTGATCCGAAGGACTTAG | 557 |
| GAACCCATGTCTCTACTGGTGGTGGTGCTTCTTTAG | 519 |
| GAATATCAGAGAAGTGGGGTGAGCAAAGTATAATAG | 568 |
| TGTACGAAGCTATATCAGGTGACTATAGTAGTTAGG | 4280 |
| GAATTGCGCTAGCTTCAGCTGATGTGCCATGTATAG | 503 |
| TGTACGAAGCTATCACGTGTGAATATAGTAGTTAGG | 7560 |
| GAATCAAATTCGTCACACGTTTCCAATTTGCAATAG | 725 |
| GAAAGAAATGTGCCCAACGTGACCATGGCTCTTTAG | 1830 |
| CTATTGCACTAACTTTACGTGTCTTTTTGTTTTTTC | 494 |
| CTAAAAGGTGCCAGTGACGTGATGGTTACGCCTTTC | 547 |

Repeated from above (sample 3):
| Oligonucleotide | E-score |
| --- | --- |
| TATACTAA | 0.286 |
| CACTGTAA | 0.142 |
| AGCCAGTA | -0.204 |
| GATAATTA | 0.406 |
| AACATCCA | -0.00305 |
| ACCCAATG | -0.0393 |
| CAAGTAAG | 0.12 |
| CCCAACTC | -0.052 |
| ACACATCC | -0.0444 |
| AGATAGCT | -0.0934 |
| CCGTTGTC | -0.0719 |
| ATGCCGAC | -0.154 |
| GGCGACAC | -0.252 |
| CAGGCGCG | -0.28 |
| AGCAGTGC | -0.134 |
